Measurements gathered from unrelated publications.
Parts stem from different laboratories: compare values within a part only. Values joined by “and” are separate records of one study, mostly repeats; a detail may differ.
Chain of UniProt P49759 (whole entry, looked up): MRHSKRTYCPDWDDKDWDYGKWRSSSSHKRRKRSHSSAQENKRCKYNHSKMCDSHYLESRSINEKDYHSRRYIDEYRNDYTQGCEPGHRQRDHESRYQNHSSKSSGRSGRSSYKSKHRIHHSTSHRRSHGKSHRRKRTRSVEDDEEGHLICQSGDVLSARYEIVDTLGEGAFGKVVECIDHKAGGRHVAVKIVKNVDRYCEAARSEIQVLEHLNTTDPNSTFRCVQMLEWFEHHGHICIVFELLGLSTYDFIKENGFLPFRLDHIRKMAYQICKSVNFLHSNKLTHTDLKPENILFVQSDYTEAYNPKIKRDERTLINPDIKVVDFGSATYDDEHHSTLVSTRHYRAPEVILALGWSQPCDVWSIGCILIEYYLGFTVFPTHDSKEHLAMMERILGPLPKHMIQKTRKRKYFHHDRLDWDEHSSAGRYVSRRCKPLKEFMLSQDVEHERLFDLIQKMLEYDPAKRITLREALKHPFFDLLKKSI
Chain of UniProt Q14012 (whole entry, looked up): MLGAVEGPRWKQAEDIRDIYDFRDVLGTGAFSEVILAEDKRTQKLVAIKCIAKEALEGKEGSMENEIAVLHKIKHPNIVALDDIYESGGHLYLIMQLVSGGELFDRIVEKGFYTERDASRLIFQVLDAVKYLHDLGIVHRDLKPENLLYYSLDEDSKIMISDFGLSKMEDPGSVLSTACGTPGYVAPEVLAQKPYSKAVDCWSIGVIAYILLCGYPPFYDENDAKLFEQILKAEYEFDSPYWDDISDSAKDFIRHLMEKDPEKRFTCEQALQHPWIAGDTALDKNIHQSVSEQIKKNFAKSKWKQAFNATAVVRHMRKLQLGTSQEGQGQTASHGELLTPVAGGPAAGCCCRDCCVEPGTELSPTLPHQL
Chain of UniProt Q9UF33 (whole entry, looked up): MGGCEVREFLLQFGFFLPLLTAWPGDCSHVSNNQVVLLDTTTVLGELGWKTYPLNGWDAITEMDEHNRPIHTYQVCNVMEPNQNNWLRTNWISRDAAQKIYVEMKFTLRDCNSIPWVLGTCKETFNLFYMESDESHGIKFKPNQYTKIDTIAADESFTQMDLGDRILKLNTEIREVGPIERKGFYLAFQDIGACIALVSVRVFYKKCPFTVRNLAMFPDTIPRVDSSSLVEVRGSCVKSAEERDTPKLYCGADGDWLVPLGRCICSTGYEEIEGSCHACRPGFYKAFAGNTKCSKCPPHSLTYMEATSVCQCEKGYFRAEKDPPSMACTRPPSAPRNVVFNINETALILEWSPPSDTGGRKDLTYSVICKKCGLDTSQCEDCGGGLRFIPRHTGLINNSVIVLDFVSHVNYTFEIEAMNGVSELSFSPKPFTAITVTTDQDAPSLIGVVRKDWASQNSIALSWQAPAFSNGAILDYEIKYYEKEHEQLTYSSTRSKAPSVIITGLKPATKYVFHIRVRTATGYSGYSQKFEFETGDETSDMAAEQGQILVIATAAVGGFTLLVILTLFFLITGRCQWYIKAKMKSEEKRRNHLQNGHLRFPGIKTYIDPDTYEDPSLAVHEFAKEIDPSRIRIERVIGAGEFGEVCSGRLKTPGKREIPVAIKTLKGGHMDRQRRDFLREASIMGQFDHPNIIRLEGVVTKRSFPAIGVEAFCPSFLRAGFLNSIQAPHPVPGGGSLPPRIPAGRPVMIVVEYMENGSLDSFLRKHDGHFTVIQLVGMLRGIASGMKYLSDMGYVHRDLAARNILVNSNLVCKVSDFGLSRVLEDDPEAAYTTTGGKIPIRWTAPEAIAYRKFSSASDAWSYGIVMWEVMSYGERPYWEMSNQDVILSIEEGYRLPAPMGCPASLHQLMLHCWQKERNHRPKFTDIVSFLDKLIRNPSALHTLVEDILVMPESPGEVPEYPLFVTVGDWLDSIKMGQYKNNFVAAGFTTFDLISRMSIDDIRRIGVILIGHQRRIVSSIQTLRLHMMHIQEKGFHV

Series 1 — effect on: enzyme activity; mode: inhibitor; tested at: 77 µM; baseline: untreated
Target: DNA polymerase theta, ATPase domain (POLQ, Homo sapiens, UniProt O75417)
Chain of UniProt O75417 (whole entry, unmodified, looked up): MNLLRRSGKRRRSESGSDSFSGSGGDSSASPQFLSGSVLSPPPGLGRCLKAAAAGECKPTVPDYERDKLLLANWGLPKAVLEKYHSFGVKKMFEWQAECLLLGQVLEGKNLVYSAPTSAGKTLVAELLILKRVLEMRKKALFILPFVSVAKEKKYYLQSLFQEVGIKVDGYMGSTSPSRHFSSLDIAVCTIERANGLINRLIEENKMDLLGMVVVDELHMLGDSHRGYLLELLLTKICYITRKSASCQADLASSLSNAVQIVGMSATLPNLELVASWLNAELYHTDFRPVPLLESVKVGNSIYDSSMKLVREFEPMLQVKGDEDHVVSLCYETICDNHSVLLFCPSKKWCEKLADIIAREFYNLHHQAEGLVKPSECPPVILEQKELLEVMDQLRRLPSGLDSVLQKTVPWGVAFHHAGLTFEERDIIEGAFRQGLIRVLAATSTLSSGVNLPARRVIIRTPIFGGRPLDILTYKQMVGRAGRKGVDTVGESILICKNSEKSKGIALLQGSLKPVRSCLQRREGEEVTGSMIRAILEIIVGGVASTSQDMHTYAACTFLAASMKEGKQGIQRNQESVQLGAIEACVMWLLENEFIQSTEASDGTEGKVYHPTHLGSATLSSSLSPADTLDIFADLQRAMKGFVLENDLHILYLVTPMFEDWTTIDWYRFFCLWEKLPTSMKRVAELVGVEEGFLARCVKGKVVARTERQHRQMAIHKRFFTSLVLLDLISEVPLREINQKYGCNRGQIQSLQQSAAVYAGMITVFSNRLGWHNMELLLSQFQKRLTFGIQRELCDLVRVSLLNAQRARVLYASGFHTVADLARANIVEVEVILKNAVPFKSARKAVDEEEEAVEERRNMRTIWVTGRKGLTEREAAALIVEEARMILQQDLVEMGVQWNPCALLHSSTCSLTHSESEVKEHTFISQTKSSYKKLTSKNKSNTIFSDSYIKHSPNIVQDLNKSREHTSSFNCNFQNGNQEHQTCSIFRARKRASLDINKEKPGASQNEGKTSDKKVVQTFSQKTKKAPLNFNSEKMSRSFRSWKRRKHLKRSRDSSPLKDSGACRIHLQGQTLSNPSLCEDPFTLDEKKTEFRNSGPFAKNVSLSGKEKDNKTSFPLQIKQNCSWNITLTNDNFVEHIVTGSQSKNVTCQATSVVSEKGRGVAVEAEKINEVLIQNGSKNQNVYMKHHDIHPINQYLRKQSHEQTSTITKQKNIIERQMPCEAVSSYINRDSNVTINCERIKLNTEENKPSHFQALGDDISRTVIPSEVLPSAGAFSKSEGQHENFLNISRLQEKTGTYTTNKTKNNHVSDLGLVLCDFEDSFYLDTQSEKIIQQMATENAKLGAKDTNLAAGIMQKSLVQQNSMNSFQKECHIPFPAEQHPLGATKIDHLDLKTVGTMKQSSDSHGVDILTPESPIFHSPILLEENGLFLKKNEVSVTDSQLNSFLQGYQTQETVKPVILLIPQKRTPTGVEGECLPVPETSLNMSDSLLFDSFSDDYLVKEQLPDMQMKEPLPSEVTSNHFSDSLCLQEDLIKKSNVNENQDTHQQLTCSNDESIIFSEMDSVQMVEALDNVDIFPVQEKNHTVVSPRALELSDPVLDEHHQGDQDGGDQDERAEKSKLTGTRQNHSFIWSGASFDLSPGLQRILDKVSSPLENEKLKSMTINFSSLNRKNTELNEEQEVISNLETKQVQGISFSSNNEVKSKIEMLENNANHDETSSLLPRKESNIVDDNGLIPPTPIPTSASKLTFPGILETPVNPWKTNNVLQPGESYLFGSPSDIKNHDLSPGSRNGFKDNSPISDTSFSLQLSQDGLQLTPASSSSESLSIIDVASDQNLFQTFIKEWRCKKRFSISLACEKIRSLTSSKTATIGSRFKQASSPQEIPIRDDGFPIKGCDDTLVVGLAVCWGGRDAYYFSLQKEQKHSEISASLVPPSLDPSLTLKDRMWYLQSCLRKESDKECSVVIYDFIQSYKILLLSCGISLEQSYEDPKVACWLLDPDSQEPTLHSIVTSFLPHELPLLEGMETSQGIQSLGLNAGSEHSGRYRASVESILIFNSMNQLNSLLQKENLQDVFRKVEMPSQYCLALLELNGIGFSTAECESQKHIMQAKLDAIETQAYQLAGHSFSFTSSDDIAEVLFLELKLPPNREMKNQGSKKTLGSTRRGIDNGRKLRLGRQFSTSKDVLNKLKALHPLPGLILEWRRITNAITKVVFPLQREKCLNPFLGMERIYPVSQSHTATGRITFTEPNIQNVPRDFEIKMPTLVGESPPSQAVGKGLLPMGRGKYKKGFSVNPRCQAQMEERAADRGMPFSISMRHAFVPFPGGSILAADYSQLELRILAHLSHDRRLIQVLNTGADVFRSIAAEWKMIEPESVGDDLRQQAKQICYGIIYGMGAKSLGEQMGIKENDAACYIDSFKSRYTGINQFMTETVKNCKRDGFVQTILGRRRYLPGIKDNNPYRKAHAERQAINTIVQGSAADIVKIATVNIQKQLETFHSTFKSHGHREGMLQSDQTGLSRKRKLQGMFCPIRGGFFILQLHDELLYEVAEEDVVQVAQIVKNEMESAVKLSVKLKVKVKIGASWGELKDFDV
SMILES | remaining activity
O=C1CCC(N2C(=O)c3ccccc3C2=O)C(=O)N1 (stereo not drawn) | 99.5% and 76.6%
C=C1C(=O)O[C@@H]2[C@H]3O[C@]3(C)CC/C=C(\C)CC[C@@H]12 | 127%
COC(=O)C(C)(N)Cc1ccc(O)cc1 (racemic) | 101%
CC(C)(C)NCC(O)COc1cccc2[nH]c(=O)[nH]c12 (stereo not drawn) | 101%
COc1ccc(-c2coc3cc(O)cc(O)c3c2=O)cc1 | 77.8%
NS(=O)(=O)c1cc(C2(O)NC(=O)c3ccccc32)ccc1Cl (stereo not drawn) | 96.2%
O=C(O)/C(S)=C/c1c[nH]c2ccc(F)cc12 | 85.9%
O=C(NS(=O)(=O)c1ccc(Br)s1)c1ccc(Cl)cc1Cl | 77.4%
N[C@H]1C[C@@H]1c1ccc(-c2cccc(O)c2)cc1 | 104%

Series 2 — effect on: binding; technique: radioligand binding; tested at: 10 µM
Target: Alpha-2C adrenergic receptor (ADRA2C, Homo sapiens, UniProt P18825)
Chain of UniProt P18825 (whole entry, looked up): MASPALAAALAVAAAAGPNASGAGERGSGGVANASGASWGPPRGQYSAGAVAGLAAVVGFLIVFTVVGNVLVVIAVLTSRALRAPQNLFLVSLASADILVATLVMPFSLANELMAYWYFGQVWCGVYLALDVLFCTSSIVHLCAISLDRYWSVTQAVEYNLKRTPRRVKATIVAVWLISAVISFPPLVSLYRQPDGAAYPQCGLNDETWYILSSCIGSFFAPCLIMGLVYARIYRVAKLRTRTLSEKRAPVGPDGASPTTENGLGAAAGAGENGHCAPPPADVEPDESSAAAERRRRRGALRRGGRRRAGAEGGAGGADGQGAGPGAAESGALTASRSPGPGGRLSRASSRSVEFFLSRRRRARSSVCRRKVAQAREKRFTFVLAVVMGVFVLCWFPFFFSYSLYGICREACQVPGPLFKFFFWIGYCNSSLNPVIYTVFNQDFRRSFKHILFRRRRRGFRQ
Compound | inhibition
CNC(=O)Nc1ccc2c(c1)[C@]1(CC2)OC(=O)N(CC(=O)N(Cc2ccc(F)cc2)[C@@H](C)C(F)(F)F)C1=O | 8.88%
O=C(O)c1cc(-c2ccc(C3CCNCC3)cc2)c2ccc(-c3ccc(C(F)(F)F)cc3)cc2c1 | 30.2%
Cc1c(N2CCCC2)nc2ccc(Br)cc2c1C(=O)NC[C@H](CCC(=O)O)c1ccccc1Cl | 16.1%
CCOC(=O)c1cc2cc(-c3cc(C(=O)NCc4ccc(C(=O)O)cc4)nn3C)ccc2[nH]1 | -7.04%
COc1cc(-c2cn(C3CCc4ccccc4N(CC(F)(F)F)C3=O)nn2)ccc1-n1ccc(C)n1 (stereo not drawn) | 9.04%
O[C@]1(C(F)(F)F)CCCC[C@H]1Nc1ccc(F)cc1 | 4.19%
CC(=O)N1CCC(c2ccc(C(=O)NC(=N)N)cc2C(F)(F)F)CC1 | 9.12%
CN1CCN(C(=O)C(C)(C)c2ccc(C(=O)Nc3cn4cc(-c5ccncc5)ccc4n3)cc2)CC1 | 17.2%
Cc1c[nH]c2nccc(Oc3c(F)cc(Nc4cc(Cl)nc(N)n4)cc3F)c12 | -10.9%
CC1=C(C#N)[C@@H](c2ccc3[nH]nc(C)c3c2)C(C#N)=C(c2ccc(Cl)cc2)N1 | -1.57%
COc1nc2ccc([C@@](O)(c3ccccc3)C3CCN(C(C)=O)CC3)cc2c(Cl)c1Cc1ccc(-n2cccn2)cc1 | 39.8%
CC(=O)c1c(NS(C)(=O)=O)c2cc(-c3ccc(Cl)cc3)c(-c3ccc(Cl)cc3Cl)nc2n(C)c1=O | 78.9%
O=C1c2ccc(Nc3ccc(F)cc3F)cc2CCc2ccc(OC[C@H](O)CO)cc21 | 10.8%
CC1=C(C#N)C(c2ccc3c(c2)c(NC(=O)c2ccccc2C)nn3C)C(C#N)=C(C)N1 | 10.2%
C[C@@]1(Cc2ccc(C#N)cc2)C(=O)N(c2cc(Cl)cc(Cl)c2)c2ncc(C(=O)NC3(c4nc(C5CCC5)no4)CC3)n21 | 9.3%
O=C(Nc1cnc(Oc2ccc(F)cc2)nc1)N1CCc2ncccc2[C@@H]1c1ccc(F)cc1 | 8.55%
C[C@H](NC(=O)c1cnc2n1[C@](C)(Cc1ccc(C#N)cc1)C(=O)N2c1cc(Cl)c(F)c(Cl)c1)C(=O)NC1(c2ccccn2)CC1 | 0.16%
Cc1nc(Cc2cccc(C(F)(F)F)c2)sc1-c1ccc(C(N)=O)nc1 | 8.38%
CNC(=O)c1ccc(Nc2ncc(C(F)(F)F)c(NCc3nccnc3N(C)S(C)(=O)=O)n2)cc1 | 4.73%
C[C@@H]1CN(c2cc(-c3nn(C)c4ccc(OC5(C)CC5)cc34)ncn2)C[C@H](C)O1 | 15.1%
O=C(Nc1cccnn1)N1CCC(=Cc2cccc(Oc3ccc(C(F)(F)F)cn3)c2)CC1 | 79.3%
CCOCCn1cc(C(=O)Nc2ccc(-n3nc(-c4cccnc4)cc3C(F)(F)F)cn2)ccc1=O | -13.3%
CC(C)(O)c1cncc(-c2nc3ccc(F)cc3n2C2CC2)c1 | 70.1%
Cc1cc(-n2nc(Cc3cc(F)cc(C(F)(F)F)c3)nc2C)ccc1C(N)=O | 9.76%
Cc1nc(N2CC[C@@H](O)C2)ncc1-c1cc(C(F)(F)F)cc2[nH]ncc12 | 2.18%

Series 3 — tested at: 0.5 µM
SMILES: CN1CCN(c2ccc3nc(-c4c(N)c5c(F)cccc5[nH]c4=O)[nH]c3c2)CC1
target | assay | setting | how to read | remaining activity [%]
RPS6KA3 (Homo sapiens, UniProt P51812) | enzyme activity, inhibitor |  | baseline: control | 34.3
SRPK1 (Homo sapiens, UniProt Q96SB4) | enzyme activity, inhibitor |  | baseline: control | 97.5
PAK1 (Homo sapiens, UniProt Q13153) | enzyme activity, inhibitor |  | baseline: control | 111
PRKCZ (Homo sapiens, UniProt Q05513) | enzyme activity, inhibitor |  | baseline: control | 81
CAMK1 (Homo sapiens, UniProt Q14012) | enzyme activity, inhibitor |  | baseline: control | 85.8
CSNK1D (Homo sapiens, UniProt P48730) | enzyme activity, inhibitor |  | baseline: control | 79.3
CLK2 (Homo sapiens, UniProt P49760) | enzyme activity, inhibitor |  | baseline: control | 38.6
SIK2 (Homo sapiens, UniProt Q9H0K1) | enzyme activity, inhibitor |  | baseline: control | 25.5
ABL2 (Homo sapiens, UniProt P42684) | kinase activity | with: ATP 10 µM | baseline: untreated | 24.3
MUSK (Homo sapiens, UniProt O15146) | enzyme activity, inhibitor |  | baseline: control | 63.2
Cyclin-dependent kinase 2, with cyclin E (CDK2, Homo sapiens, UniProt P24941) | enzyme activity, inhibitor |  | baseline: control | 92.3
CLK1 (Homo sapiens, UniProt P49759) | enzyme activity, inhibitor |  | baseline: control | 67.8
CSNK1E (Homo sapiens, UniProt P49674) | enzyme activity, inhibitor |  | baseline: control | 94.1
TEC (Homo sapiens, UniProt P42680) | enzyme activity, inhibitor |  | baseline: control | 91
PAK6 (Homo sapiens, UniProt Q9NQU5) | enzyme activity, inhibitor |  | baseline: control | 103
PRKCQ (Homo sapiens, UniProt Q04759) | enzyme activity, inhibitor |  | baseline: control | 97.6
TYRO3 (Homo sapiens, UniProt Q06418) | enzyme activity, inhibitor |  | baseline: control | 23.8
JAK1 (Homo sapiens, UniProt P23458) | enzyme activity, inhibitor |  | baseline: control | 92.1
EPHA2 (Homo sapiens, UniProt P29317) | enzyme activity, inhibitor |  | baseline: control | 76.9
CAMKK1 (Homo sapiens, UniProt Q8N5S9) | enzyme activity, inhibitor |  | baseline: control | 48.5
MAP3K20 (Homo sapiens, UniProt Q9NYL2) | enzyme activity, inhibitor |  | baseline: control | 91.5
SGK2 (Homo sapiens, UniProt Q9HBY8) | enzyme activity, inhibitor |  | baseline: control | 89.8
EPHA6 (Homo sapiens, UniProt Q9UF33) | enzyme activity, inhibitor |  | baseline: control | 44.6

Series 4 — mode: inhibitor
SMILES: Cc1nc(Nc2ncc(C(=O)Nc3c(C)cccc3Cl)s2)cc(N2CCN(CCO)CC2)n1
target | setting | inhibition
STK17A (Homo sapiens, UniProt Q9UEE5) | 10 µM | < 50%
PRKACB (Homo sapiens, UniProt P22694) | 10 µM | < 50%
STK32C (Homo sapiens, UniProt Q86UX6) | 10 µM | < 50%
CAMK1 (Homo sapiens, UniProt Q14012) | 10 µM | < 50%
CLK1 (Homo sapiens, UniProt P49759) | 10 µM | < 50%
GSK3B (Homo sapiens, UniProt P49841) | 10 µM | < 50%
Non-receptor tyrosine-protein kinase TYK2, JH1 domain (TYK2, Homo sapiens, UniProt P29597) | 10 µM | 98%
Ribosomal protein S6 kinase alpha-4, N-terminal kinase domain (RPS6KA4, Homo sapiens, UniProt O75676) | 10 µM | < 50%
AXL (Homo sapiens, UniProt P30530) | 1 µM | < 50%

A few entries again (series 3):
target | assay | setting | how to read | remaining activity [%]
SIK2 (Homo sapiens, UniProt Q9H0K1) | enzyme activity, inhibitor |  | baseline: control | 25.5
EPHA6 (Homo sapiens, UniProt Q9UF33) | enzyme activity, inhibitor |  | baseline: control | 44.6
MUSK (Homo sapiens, UniProt O15146) | enzyme activity, inhibitor |  | baseline: control | 63.2
PAK1 (Homo sapiens, UniProt Q13153) | enzyme activity, inhibitor |  | baseline: control | 111
PRKCZ (Homo sapiens, UniProt Q05513) | enzyme activity, inhibitor |  | baseline: control | 81
